Measurements pooled from the literature.

CCN(CCO)CCCC(C)Nc1ccnc2cc(Cl)ccc12 (centres unmarked) — result for “patients with adverse event”: 14% (measured: Photosensitivity grade 2; newly diagnosed glioblastoma patients; oral, 400 mg/dose, with radiotherapy and temozolomide).
C[C@@H]1OC(=O)NN=C1c1ccc(-c2ccc(F)cc2)c(C(F)(F)F)c1: “patients with platelet count decreased” 0% (patients, phase I trial; oral, 5 mg once daily, worst grade 1).
For COc1ccc(-c2c(-c3ccc(C#N)c(F)c3)nc(N3CCC(N)CC3)n(C)c2=O)cc1F, “patients with TRAE any grade” read 0% (measured: rash maculo-papular; relapsed/refractory MZL patients; oral, 60 mg, dose expansion).
N[C@@H]1c2ccccc2OC12CCN(c1cnc3c(N4CCCc5ncccc54)n[nH]c3n1)CC2: “patients with fatal TEAE” 0% (advanced solid tumour patients; oral, 60 mg once daily).
CN1CC[C@@H](c2c(O)cc(O)c3c(=O)cc(-c4ccc(C(F)(F)F)cc4Cl)oc23)[C@@H]1CO — result for “patients with adverse event”: 0% (measured: febrile neutropenia; B-cell malignancies; oral, 150 mg, grade 3 to 4, intermittent dosing).
For COc1c(C)cnc(Cn2cc(C#CCCOP(=O)(O)O)c3c(Cl)nc(N)nc32)c1C, “patients with hot flushes” read 29% (patients, advanced solid tumours; dose not given, possibly drug-related).
For Cn1cc(-c2nc(N[C@@H]3CCCC[C@@H]3N)c(F)c3c2C(=O)NC3)cn1, “patients with gingival bleeding” read 17% (relapsed/refractory AML patients; oral, 80 mg twice daily, phase Ib trial).
Nc1nc2cc(-c3ccc4ncc(C(=O)N5CCOCC5)n4c3)ccc2o1 — result for “patients with adverse event”: 20% (measured: Cough; advanced solid tumour patients; dose not given, all grades, all doses).
Under “patients with drug-related TEAEs”, CCNCCCNC/C=C\CNCCCNCC is recorded as 45.7% (advanced refractory solid tumour patients; intravenous, dose not given, Gastrointestinal disorders).
CC(=O)c1c(C)c2cnc(Nc3ccc(C4CCN(CCS(C)(=O)=O)CC4)cn3)nc2n(C2CCCC2)c1=O — result for “patients with hypertriglyceridemia”: 22.2% (HR+/HER2- advanced breast cancer patients; oral, dose not given, all grades,, sample A patients).
For CC(C)C[C@H](NC(=O)[C@@H](Cc1c[nH]c2ccccc12)NC(=O)[C@H](Cc1ccc(O)cc1)NC(=O)[C@H](CO)NC(=O)[C@H](Cc1c[nH]c2ccccc12)NC(=O)[C@H](Cc1c[nH]cn1)NC(=O)[C@@H]1CCC(=O)N1)C(=O)N[C@@H](CCCNC(=N)N)C(=O)N1CCC[C@H]1C(=O)NCC(N)=O, “patients who died” read 0% (Chinese CPP children, girls; intramuscular, 22.5 mg, 12 months, day 1, month 6).
COc1cc2c(Oc3ccc4[nH]c(C)cc4c3F)ccnc2cc1OCC1(N)CC1 — result for “patients with grade 3 Triglyceride elevation”: 0% (paediatric refractory sarcoma patients; 8 mg/kg).
O=C1Nc2cc3[nH]nc(-c4ccncc4)c3cc2CN1Cc1ccccc1 — result for “patients with diarrhoea”: 0% (CTCAE v4.03; advanced solid tumour patients; intravenous, 0.9 mg/kg, schedules 1/2).
Under “patients with constipation TEAE”, C=CCNc1c(O)cc2c(O)c1C[C@@H](C)C[C@H](OC)[C@H](O)[C@@H](C)/C=C(\C)[C@H](OC(N)=O)[C@@H](OC)/C=C\C=C(/C)C(=O)N2 is recorded as 43% (unresectable or metastatic STS, GIST, other; intravenous, 500 mg/m^2).
CO[C@H]1C[C@@H]2CC[C@@H](C)[C@@](O)(O2)C(=O)C(=O)N2CCCC[C@H]2C(=O)O[C@H]([C@H](C)C[C@@H]2CC[C@@H](OC(=O)NCCOCCOCCOCCOCCOCCOCCOCCOCCC(=O)N3CCc4cc(Cn5nc(-c6ccc7oc(N)nc7c6)c6c(N)ncnc65)ccc4C3)[C@H](OC)C2)C[C@@H](O)[C@H](C)/C=C(\C)[C@@H](O)[C@@H](OC)C(=O)[C@H](C)C[C@H](C)/C=C/C=C/C=C/1C — result for “patients with AE”: 68% (measured: grade ≥3 TEAE; patients with advanced solid tumours; intravenous, dose not given, all patients, weekly).
For C=CC(=O)N1CC[C@H](n2nc(C#Cc3cc(OC)cc(OC)c3)c3c(N)ncnc32)C1, “patients with ADR” read 100% (hyperphosphataemia patients; oral, once daily, grade ≥3, ferric citrate users).
COc1nnc2ccc(N3CCC(c4ccc(OCCN5CCN(C)C(=O)[C@H]5C)cc4)CC3)nn12 — result for “patients with adverse event”: 32.4% (measured: thrombocytopenia; patients with solid tumours or lymphoma; oral, dose not given, all grades, treatment-emergent).
